# Measurements pooled from the literature.
# Numbered parts are unrelated; each lists some results of a single study. Substitutions count along the parent as printed.

# Block 1
# Target: Centromere-binding protein 1, full length, N-terminal tag (CBF1, Saccharomyces cerevisiae, UniProt P17106, residues 1-351)
# Sequence of UniProt P17106 (whole entry, looked up): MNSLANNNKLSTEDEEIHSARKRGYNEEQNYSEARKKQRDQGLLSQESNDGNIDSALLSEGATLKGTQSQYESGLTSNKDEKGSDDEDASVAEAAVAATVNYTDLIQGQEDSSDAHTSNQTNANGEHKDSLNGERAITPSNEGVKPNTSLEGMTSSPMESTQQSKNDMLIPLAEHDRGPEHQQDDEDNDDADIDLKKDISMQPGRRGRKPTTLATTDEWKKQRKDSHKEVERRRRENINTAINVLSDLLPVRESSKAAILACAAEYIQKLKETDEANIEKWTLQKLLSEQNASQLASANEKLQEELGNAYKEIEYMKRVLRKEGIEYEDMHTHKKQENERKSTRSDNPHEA
# Method: protein-binding microarray
# Molecule type: double-stranded DNA, one strand shown
# Matrix: in vitro
# Concentration: 0.8 µM
# Setting: whole 60-bp probe, no competitor
# Reading: higher = stronger binding
Oligonucleotide,fluorescence intensity
CCTAACTACTATACATACGTGAGATAGCTTCGTACAGTCTTGATTCGCTTGACGCTGCTG,526 a.u.
CTATATTAGATCACTTAGCACGTGAAAAAGAAATTCGTCTTGATTCGCTTGACGCTGCTG,7860 a.u.
CTACTTTTTATTGCAAACGTGCAAACGCATGACTTCGTCTTGATTCGCTTGACGCTGCTG,807 a.u.
GAATGAAGGTATTATCAGTTGAGCAAATATTACTAGGTCTTGATTCGCTTGACGCTGCTG,539 a.u.

# Block 2
# Target: PABPC1L2, full length, GST fusion (mouse, UniProt A0ABA7IW68)
# Method: RNAcompete
# Molecule type: RNA
# Matrix: in vitro
# Concentration: 20 nM
# Setting: 7-mer, probes averaged, single round
# Baseline: mean of 7-mers
# Reading: higher = stronger binding
# Residues (chain): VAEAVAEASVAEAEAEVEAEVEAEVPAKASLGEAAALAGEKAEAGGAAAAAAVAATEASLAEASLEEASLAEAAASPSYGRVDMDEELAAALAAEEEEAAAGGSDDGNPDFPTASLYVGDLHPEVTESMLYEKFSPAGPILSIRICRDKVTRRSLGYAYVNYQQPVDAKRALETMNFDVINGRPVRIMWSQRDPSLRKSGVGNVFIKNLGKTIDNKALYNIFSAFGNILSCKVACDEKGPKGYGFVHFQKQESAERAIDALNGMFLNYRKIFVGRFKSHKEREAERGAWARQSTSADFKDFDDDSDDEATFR
Oligonucleotide,7-mer Z-score
CAUAUAG,-0.164
AUACUGC,-0.18
CUUCGAA,-0.298
UCAAACA,0.863

# Single results of other studies
# CCNA1: CCNA1, cyclin fold, Cln2 fusion (human)
# P1: CDC25A docking peptide (human); PPHRRRLLFACSP; partner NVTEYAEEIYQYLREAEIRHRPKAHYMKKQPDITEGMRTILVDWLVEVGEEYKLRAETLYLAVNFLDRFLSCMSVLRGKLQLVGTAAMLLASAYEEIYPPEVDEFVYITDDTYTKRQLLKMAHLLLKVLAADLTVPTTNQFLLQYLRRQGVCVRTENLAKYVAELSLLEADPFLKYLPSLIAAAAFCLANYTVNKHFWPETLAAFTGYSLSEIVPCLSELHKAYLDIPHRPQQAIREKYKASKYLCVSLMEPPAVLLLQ
# P2: RB1 docking peptide (human); PKPLKKLRFDIEG
# P3: BRCA2 docking peptide (human); PSIKRNLLNEFDR; partner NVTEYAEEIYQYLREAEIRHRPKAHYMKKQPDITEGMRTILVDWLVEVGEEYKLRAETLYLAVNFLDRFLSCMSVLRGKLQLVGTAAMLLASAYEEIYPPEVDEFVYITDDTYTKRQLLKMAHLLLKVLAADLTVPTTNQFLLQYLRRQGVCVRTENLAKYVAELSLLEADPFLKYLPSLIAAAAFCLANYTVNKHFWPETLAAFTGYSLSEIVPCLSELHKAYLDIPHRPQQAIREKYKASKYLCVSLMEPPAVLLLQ
# P4: E2F1 docking peptide (human); PPVKRRLDFETDH; partner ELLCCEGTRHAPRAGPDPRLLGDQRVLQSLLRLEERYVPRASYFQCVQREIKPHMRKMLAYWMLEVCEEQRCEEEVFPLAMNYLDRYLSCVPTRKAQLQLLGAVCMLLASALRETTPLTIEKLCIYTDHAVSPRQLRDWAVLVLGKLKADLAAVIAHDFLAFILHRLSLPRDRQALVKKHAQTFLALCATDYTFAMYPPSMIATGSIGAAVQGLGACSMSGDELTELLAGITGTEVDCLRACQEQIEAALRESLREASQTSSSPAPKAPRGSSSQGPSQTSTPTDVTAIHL
Molecule,target,assay,test system,conditions,scale,quantity,result
P1 R6I,CCNA1,"yeast growth competition, sequencing",yeast,weak parent motif,"baseline: not given, higher = stronger binding",normalised enrichment score,-0.168
"PhoQ, residues 284 288 289 292 302 303 NLCILV","PhoP, residues 12 14 15 18 19 AQALL (Escherichia coli, UniProt P23836)","Sort-seq, item: YFP reporter",E. coli,"PhoQ-PhoP variant library, with: 10 µM Mg2+","baseline: high Mg2+ state, higher = stronger signaling",fold induction,13.4
P2 L4G,"CCNB1, cyclin fold, Cln2 fusion (human)","yeast growth competition, sequencing",yeast,weak parent motif,"baseline: not given, higher = stronger binding",normalised enrichment score,0.435
P3 R13T,CCNA1,"yeast growth competition, sequencing",yeast,weak parent motif,"baseline: not given, higher = stronger binding",normalised enrichment score,0.675
P4 F9E,"CCND3, cyclin fold, Cln2 fusion (human)","yeast growth competition, sequencing",yeast,weak parent motif,"baseline: not given, higher = stronger binding",normalised enrichment score,0.299

# A few entries again (block 1):
Oligonucleotide,fluorescence intensity
CTACTTTTTATTGCAAACGTGCAAACGCATGACTTCGTCTTGATTCGCTTGACGCTGCTG,807 a.u.
